Assay results pooled from the literature.
Numbered parts are unrelated; each lists some results of a single study. Values joined by “and” are separate records of one study, mostly repeats; a detail may differ.
Chain of UniProt Q9QZL0 (whole entry, unmodified, looked up): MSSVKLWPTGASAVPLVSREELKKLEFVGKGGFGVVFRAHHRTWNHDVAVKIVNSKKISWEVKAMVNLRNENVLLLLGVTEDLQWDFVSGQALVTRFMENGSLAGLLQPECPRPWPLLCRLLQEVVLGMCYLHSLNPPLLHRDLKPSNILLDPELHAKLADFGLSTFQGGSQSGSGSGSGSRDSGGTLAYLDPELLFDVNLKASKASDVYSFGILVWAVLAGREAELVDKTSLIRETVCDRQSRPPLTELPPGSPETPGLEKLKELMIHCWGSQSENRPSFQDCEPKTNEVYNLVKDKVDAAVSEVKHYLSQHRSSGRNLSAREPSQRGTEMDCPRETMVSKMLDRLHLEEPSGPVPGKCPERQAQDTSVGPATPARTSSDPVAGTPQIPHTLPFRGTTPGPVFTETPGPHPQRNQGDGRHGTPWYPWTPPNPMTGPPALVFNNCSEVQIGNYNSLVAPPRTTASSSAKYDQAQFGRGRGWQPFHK
Chain of UniProt Q8NG66 (whole entry, looked up): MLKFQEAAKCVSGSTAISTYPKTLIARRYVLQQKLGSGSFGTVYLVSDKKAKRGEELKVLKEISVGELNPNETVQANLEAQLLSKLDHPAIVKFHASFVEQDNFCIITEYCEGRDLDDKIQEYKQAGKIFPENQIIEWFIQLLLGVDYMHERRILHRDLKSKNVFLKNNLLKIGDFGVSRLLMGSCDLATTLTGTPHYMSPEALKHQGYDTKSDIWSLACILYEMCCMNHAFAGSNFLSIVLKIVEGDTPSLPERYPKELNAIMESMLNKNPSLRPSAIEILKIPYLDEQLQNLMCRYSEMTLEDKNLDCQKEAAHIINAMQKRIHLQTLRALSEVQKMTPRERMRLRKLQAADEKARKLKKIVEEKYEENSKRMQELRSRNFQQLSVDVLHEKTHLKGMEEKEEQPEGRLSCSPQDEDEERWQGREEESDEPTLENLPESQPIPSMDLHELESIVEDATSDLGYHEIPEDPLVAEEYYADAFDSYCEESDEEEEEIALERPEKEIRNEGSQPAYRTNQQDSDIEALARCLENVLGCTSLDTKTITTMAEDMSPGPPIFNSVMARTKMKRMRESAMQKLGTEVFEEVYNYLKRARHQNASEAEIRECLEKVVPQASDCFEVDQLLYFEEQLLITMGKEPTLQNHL
Chain of UniProt Q9UM73 (whole entry, unmodified, looked up): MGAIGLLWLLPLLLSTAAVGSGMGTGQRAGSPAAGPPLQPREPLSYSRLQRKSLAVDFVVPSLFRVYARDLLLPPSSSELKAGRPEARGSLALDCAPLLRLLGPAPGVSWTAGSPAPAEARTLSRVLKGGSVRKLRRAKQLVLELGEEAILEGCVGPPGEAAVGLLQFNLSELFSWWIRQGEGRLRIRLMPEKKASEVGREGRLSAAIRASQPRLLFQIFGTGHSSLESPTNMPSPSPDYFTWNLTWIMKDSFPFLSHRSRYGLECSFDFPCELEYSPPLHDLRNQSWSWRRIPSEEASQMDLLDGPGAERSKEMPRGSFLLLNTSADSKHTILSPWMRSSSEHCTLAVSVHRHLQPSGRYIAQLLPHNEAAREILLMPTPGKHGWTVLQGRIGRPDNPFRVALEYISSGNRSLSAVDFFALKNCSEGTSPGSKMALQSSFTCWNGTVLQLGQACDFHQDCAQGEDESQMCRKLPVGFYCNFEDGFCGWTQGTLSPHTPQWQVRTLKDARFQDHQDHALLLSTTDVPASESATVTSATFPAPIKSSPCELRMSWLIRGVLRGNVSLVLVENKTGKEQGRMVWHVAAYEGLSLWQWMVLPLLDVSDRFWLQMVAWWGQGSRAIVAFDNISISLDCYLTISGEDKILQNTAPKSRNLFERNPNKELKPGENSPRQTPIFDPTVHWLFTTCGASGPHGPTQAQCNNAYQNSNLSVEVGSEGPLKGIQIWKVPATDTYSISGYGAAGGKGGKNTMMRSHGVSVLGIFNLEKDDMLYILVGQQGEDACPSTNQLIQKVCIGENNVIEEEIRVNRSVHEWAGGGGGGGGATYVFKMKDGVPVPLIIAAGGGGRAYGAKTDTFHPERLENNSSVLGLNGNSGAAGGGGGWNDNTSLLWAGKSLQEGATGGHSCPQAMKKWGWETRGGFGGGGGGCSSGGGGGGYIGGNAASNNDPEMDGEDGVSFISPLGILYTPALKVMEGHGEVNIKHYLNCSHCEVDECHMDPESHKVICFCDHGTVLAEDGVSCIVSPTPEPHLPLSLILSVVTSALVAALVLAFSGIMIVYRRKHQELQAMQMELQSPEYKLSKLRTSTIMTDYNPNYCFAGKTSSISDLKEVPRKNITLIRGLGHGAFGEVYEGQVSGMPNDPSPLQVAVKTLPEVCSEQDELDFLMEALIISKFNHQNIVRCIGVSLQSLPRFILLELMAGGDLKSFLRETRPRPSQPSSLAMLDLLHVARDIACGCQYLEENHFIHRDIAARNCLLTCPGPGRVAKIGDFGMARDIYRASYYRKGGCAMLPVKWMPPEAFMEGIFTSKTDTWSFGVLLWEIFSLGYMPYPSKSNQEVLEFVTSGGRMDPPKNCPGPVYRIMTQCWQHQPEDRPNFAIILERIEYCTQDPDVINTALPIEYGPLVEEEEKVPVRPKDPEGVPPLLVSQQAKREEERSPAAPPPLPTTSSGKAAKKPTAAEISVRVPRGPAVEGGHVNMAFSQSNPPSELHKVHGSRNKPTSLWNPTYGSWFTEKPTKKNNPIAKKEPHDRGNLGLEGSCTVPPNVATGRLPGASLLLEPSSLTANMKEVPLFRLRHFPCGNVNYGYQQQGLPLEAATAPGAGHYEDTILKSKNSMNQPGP
Chain of UniProt Q9BX84 (whole entry, looked up): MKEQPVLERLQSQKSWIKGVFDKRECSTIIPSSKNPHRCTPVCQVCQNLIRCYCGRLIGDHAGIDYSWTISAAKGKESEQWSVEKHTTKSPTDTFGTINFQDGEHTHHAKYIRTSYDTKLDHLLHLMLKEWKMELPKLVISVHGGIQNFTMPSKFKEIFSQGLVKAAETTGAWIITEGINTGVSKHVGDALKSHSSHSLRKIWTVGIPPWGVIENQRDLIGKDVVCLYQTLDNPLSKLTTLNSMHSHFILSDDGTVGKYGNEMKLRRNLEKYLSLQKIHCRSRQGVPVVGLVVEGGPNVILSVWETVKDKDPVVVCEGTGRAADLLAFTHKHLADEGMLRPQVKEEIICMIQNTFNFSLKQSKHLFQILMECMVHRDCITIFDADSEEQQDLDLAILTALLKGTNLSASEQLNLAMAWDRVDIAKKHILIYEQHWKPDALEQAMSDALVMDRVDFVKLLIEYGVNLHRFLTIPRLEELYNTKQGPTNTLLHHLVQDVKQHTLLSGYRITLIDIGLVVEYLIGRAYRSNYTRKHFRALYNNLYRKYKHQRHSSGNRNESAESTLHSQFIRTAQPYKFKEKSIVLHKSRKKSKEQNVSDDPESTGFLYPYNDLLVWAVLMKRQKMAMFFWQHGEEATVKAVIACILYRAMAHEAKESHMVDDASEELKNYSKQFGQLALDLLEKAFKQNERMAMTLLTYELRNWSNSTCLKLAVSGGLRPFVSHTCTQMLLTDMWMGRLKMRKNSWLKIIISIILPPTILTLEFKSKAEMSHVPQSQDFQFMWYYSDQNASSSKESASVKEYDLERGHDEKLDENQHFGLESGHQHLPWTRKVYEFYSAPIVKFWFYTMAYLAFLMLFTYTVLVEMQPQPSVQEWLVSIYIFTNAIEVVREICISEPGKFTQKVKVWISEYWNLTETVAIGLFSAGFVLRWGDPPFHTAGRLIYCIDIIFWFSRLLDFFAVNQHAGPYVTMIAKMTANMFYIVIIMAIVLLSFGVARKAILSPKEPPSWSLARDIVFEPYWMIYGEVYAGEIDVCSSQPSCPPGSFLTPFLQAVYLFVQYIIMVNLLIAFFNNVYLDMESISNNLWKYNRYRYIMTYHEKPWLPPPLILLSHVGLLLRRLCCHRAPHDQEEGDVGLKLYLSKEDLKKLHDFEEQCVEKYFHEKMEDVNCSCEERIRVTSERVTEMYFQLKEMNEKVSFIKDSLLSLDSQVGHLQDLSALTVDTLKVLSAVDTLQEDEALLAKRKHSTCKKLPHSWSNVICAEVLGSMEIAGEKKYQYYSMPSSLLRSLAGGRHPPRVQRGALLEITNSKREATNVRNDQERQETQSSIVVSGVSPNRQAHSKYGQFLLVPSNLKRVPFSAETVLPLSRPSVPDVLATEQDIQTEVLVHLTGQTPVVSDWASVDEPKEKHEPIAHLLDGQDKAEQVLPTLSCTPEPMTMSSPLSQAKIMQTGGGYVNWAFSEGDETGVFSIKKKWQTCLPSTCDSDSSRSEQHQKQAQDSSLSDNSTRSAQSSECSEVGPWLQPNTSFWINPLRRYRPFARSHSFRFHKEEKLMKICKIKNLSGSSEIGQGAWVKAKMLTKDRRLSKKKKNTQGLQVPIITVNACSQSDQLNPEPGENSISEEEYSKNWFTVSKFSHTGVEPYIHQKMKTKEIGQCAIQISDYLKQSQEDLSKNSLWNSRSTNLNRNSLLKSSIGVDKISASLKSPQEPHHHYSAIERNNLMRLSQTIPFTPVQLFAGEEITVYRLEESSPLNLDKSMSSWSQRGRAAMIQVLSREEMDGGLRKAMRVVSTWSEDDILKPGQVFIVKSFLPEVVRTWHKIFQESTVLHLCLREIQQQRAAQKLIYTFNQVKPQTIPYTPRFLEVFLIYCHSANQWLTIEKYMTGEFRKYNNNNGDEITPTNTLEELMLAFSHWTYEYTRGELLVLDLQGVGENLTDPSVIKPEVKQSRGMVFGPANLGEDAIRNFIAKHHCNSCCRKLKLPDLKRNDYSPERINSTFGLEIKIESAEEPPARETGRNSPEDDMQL
Chain of UniProt P51817 (whole entry, looked up): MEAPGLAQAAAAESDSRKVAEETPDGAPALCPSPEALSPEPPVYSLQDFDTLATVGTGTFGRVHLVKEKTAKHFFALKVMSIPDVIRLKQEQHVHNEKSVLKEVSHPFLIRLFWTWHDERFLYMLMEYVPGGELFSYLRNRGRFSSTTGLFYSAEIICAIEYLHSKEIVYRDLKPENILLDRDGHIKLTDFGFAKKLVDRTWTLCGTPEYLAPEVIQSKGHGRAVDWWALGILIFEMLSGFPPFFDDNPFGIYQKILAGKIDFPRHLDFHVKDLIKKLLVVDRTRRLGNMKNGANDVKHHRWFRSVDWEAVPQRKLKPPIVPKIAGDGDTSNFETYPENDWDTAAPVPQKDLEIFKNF

Set 1
Structure (SMILES): CNC(=O)c1ccc(Nc2ncc(C(F)(F)F)c(NCc3nccnc3N(C)S(C)(=O)=O)n2)cc1
Effect on: cell-free assay
Technique: competition with immobilised ligand
Tested at: 0.1 µM
target | remaining binding [%]
Mast/stem cell growth factor receptor Kit, autoinhibited (KIT, Homo sapiens, UniProt P10721) | 100
HUNK (Homo sapiens, UniProt P57058) | 100
ACVR2B (Homo sapiens, UniProt Q13705) | 100
WNK3 (Homo sapiens, UniProt Q9BYP7) | 100
FLT3 (Homo sapiens, UniProt P36888, D835H) | 9.8
ALK (Homo sapiens, UniProt Q9UM73, C1156Y) | 74
CLK4 (Homo sapiens, UniProt Q9HAZ1) | 25
NEK11 (Homo sapiens, UniProt Q8NG66) | 89
FLT3 (Homo sapiens, UniProt P36888, R834Q) | 64
Ribosomal protein S6 kinase alpha-4, N-terminal kinase domain (RPS6KA4, Homo sapiens, UniProt O75676) | 85
CDK11B (Homo sapiens, UniProt P21127) | 95
TRPM6 (Homo sapiens, UniProt Q9BX84) | 98
EPHA3 (Homo sapiens, UniProt P29320) | 82
RET (Homo sapiens, UniProt P07949, V804L) | 30
LATS1 (Homo sapiens, UniProt O95835) | 96
ACVR2A (Homo sapiens, UniProt P27037) | 90
WNK2 (Homo sapiens, UniProt Q9Y3S1) | 94
Ribosomal protein S6 kinase alpha-6, N-terminal kinase domain (RPS6KA6, Homo sapiens, UniProt Q9UK32) | 70
BUB1 (Homo sapiens, UniProt O43683) | 100
MAP3K14 (Homo sapiens, UniProt Q99558) | 92
PIK3CA (Homo sapiens, UniProt P42336, H1047Y) | 100

Set 2
SMILES: COc1cccc(-c2cc(=O)c3ccccc3o2)c1N
Effect on: enzyme activity
Mode: inhibitor
Tested at: 0.5 µM
Baseline: control
target | remaining activity [%]
FYN (Homo sapiens, UniProt P06241) | 97.3
FER (Homo sapiens, UniProt P16591) | 97.6
Insulin receptor (INSR, Homo sapiens, UniProt P06213) | 106
PKN1 (Homo sapiens, UniProt Q16512) | 102
MATK (Homo sapiens, UniProt P42679) | 88.6
FGR (Homo sapiens, UniProt P09769) | 94.8
HIPK1 (Homo sapiens, UniProt Q86Z02) | 104
STK25 (Homo sapiens, UniProt O00506) | 106
LIM domain kinase 1 (LIMK1, Homo sapiens, UniProt P53667) | 96.1
PASK (Homo sapiens, UniProt Q96RG2) | 86.1
SRC (Homo sapiens, UniProt P12931) | 92.6
NLK (Homo sapiens, UniProt Q9UBE8) | 96.4
ITK (Homo sapiens, UniProt Q08881) | 96.5
ALK (Homo sapiens, UniProt Q9UM73) | 84.1
NEK11 (Homo sapiens, UniProt Q8NG66) | 92.9
CDC42BPA (Homo sapiens, UniProt Q5VT25) | 98.5
AKT1 (Homo sapiens, UniProt P31749) | 93.8
FLT4 (Homo sapiens, UniProt P35916) | 90.8
PRKX (Homo sapiens, UniProt P51817) | 101
TAOK3 (Homo sapiens, UniProt Q9H2K8) | 77
Cyclin-dependent kinase 3, with cyclin E (CDK3, Homo sapiens, UniProt Q00526) | 109
MARK3 (Homo sapiens, UniProt P27448) | 86.7

Set 3
Structure (SMILES): COc1cc(C(=O)N2CCC(N3CCN(C)CC3)CC2)ccc1Nc1ncc2c(n1)N(C)c1ccccc1C(=O)N2C
tested on | test | test system | setting | inhibition
human PBMC | probe labeling, inhibitor, KiNativ profiling, item: DTGHVYAMkILR | cell lysate | concentration not given, LYS1 site, added: ATP acyl-phosphate probe | 14.6%
CDK9 (mouse) | probe labelling, KiNativ, item: DMkAANVLITR peptide, LYS2 site | brain tissue lysate (mouse) | 1 µM, added: ATP acyl-phosphate probe | -8.9%
NEK9 human | KiNativ profiling | human PBMC lysate | concentration not given, ATP probe, activation loop site | -8%
ABL and ARG (mouse) | probe labelling, KiNativ, item: Lys1 site peptide | brain tissue lysate (mouse) | 1 µM, added: ADP acyl-phosphate probe | -7%
CSK (mouse) | probe labelling, KiNativ ADP probe | mouse brain lysate | 0.1 µM, LYS1 labelled site | 2%
RSK3 domain 2 (mouse) | probe labelling, inhibitor, KiNativ ActivX ADP probe | mouse brain lysate | 0.1 µM, Lys1 site peptide | 8.4%
MAP2K4 (mouse) | probe labelling, KiNativ, item: DIkPSNILLDR peptide, LYS2 site | brain tissue lysate (mouse) | 1 µM, added: ATP acyl-phosphate probe | -11.5%
PDK1 (mouse) | probe labelling, KiNativ ADP probe | mouse brain lysate | 0.1 µM, LYS1 labelled site | 17.2%
PI4KB mouse | KiNativ profiling | mouse brain lysate | 1 µM, ATP site, added: ADP acyl phosphate probe | -0.1%
RSK3 domain 1 (mouse) | probe labelling, inhibitor, KiNativ ActivX ADP probe | mouse brain lysate | 1 µM, activation loop peptide | -9.3%

Other studies, line by line
SMILES | target | test | test system | setting | measurement | result
CC(C)S(=O)(=O)c1ccc2nccc(Nc3ccc4scnc4c3)c2c1 | Receptor-interacting serine/threonine-protein kinase 3 (Ripk3, Mus musculus, UniProt Q9QZL0, C111A/R69H) | kinase domain dimerization, size-exclusion chromatography | Superdex 200 column | concentration not given | elution volume | 15.9 mL and 16.1 mL
